Experimental data of several laboratories.
Numbered parts are unrelated; each lists some results of a single study. Positions count from the first letter of the parent shown.

Block 1
Target: RING finger protein unkempt homolog, zinc fingers 1-6, SBP tag (UNK, Homo sapiens, UniProt Q9C0B0, residues 30-357)
Chain of UniProt Q9C0B0 (30-357, looked up): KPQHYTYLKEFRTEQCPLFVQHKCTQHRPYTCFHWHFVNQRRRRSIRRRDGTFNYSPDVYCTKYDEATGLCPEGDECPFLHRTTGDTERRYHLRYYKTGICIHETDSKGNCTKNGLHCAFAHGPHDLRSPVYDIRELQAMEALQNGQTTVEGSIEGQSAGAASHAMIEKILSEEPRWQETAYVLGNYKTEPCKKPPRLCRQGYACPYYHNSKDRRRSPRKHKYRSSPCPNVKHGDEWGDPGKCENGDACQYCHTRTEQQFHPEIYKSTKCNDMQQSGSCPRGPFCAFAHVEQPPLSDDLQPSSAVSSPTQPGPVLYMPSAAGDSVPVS
Technique: RNA Bind-n-Seq
Form: RNA
Matrix: in vitro
Concentration: 100 nM
Notes: RNA with constant flanks, vertebrate orthologous sites, ends assumed
Relative to: input RNA pool
Reading: higher = stronger binding
All sequences stand within: GGGAGUUCUACAGUCCGACGAUC … CAACAGAGGAUUGAGCAUCA
Oligonucleotide | bound/input enrichment [ratio]
UUGCUUUCAGGUUGUGGCUAAUUGCCCUCAUUCCCUGCCUCCACUUUAAGUUUUUUCCUUUGCACCCUCCAUAUCCCCUCUCUCAACUCAGAUAGGUGUGGAGUAUUUUACUCAGUCAUU | 0.629
GGGACGCUUUGAUGUAAAAAUUGAAGUUAAGAGCUGAUCACAAGCACAAAUCUUUCCCACUAGCCAUUUAAUAAGUUAAAGAAAAAGAUACACAAACCUACUAGUCUUGAACAAACUGUC | 2.27
CAUCUCUUGUUUUAUAUGUCCAAAAAUGGCUUUGAAUUUUAAGCAAUUACUAGUUUUAAUUAGCUCUGCCCUCAUGAAGUAUUAUUAUAAUUCACCAUAAACAGCUAUCUGUCUGAAUUA | 1.28
UUCAGGCACAACUGACUGGUUCACAGCAUUCCUUACACGGUUAUCUAUCAAAUGCAAGUGGGGUUAAUUUUCAGGAAACAAGCAGGCAGUCAUCUUUAUCCUGUAGCCCAAUUGGAGAGU | 0.856
CAUGAGCAUCUGUGUUAACUCCAAAGGCUUUGACACUUUGGCUCAUUAUACAUUUAAUCAUUCUUCCACGCCAGUUUCCUAAAAAUAGCAGUGUAGAUUCAGAGGGAUACCAAUGCUCCC | 0.877
ACAAAGGCACUUUCUCCUUCGGUCUUUCAUUGUAAGAAGAAAUGGACCCAUGCACAUUUAUAUAGCUUUCUAAUAGCAUUAAAACCAAUGCCUUUUUAGACUCCUAUUUUUGAUGUAUAU | 0.358
AUUCAAACCUGUGGUGCCUUGGCCUCACGUGGAGGGAGUAGAAGUGGAUUUGGAGUCGAUCCGCAGGAAAAACAAGGCCAAAAAUGAACAAGAGCUUCAAGCUGGGAAUGAGAACCAGCA | 0.449
CAGAGCAGCAUGGGCUGUUGAGCUGUGGAAAACUGAGCUUUGCAUUUUUUUAUAUUUAAAUAGGAUACUUUUAUAUGAUGGGUGCUUUGAGUGUGAAUGCAGCAGGCUUUCCUUUUCAGA | 1.52
UAAUCACUCUAAUUGUAAUCUGAAUAAAGUGUAACAUUGUGUAGCCUUUUUUGUAUAAAAUAGACAAAUAGAAAUGGUCCAAUUAGUUUCCUUUUUAAUAUGCUUAAAAUAAGCAGGUGG | 1.67
AGACUUUCUGUGUGCCAGAUUACCCCAAAAAACAUAAAGCUACUUUUUUACUUGCAUAUUUUUCAAAGUACCUGAAAAUGGUUUUUCUCCUUUCUAAUGGUCAAAAGAAGGUACAUUUCC | 0.501
CUCUUUUCCAGGUUGGAUGUACUGGAAAAGUCAUAGGAAUUGAUCACAUUAAAGAGCUAGUAGAUGACUCAAUAAAUAAUGUCAGGAAGGACGAUCCAACACUUCUGUCUUCAGGGAGAG | 0.786

Block 2
Target: CCNA1, cyclin fold, Cln2 fusion (human)
Technique: yeast growth competition, sequencing
Matrix: yeast
Notes: weak parent motif
Relative to: not given
Reading: higher = stronger binding
Starting sequence: SCAPER docking peptide (human); SNARRSLNFGGST
Change | normalised enrichment score
L7T | 0.385
R5H | 0.202
N2H | 0.638
R4A | 0.494
A3D | 0.217
F9R | 0.19
N2G | 0.875
N2K | 0.47
S1P | 0.446
A3K | 0.231
S12P | 0.756
S12R | 0.145
F9P | 0.243
R4W | 0.329
N8A | 0.379

Block 3
Target: Histone acetyltransferase KAT6A, both winged helices, GST fusion (KAT6A, Homo sapiens, UniProt Q92794, residues 1-181)
Technique: protein binding microarray
Form: double-stranded DNA, one strand shown
Matrix: in vitro
Concentration: not given
Notes: 8-mer, flanks averaged, mean of 2 arrays, mostly near background
Relative to: not given
Reading: higher = stronger binding
Target sequence (chain): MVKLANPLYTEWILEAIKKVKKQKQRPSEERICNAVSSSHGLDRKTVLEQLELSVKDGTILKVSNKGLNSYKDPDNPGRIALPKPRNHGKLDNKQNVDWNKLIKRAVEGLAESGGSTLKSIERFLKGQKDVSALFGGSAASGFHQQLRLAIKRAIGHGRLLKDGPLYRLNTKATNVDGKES
Oligonucleotide | E-score
ACAAGATA | -0.101
AATCCAAG | -0.141
CAAGTGAG | -0.192
CAACTAGA | -0.0473
ACTCTTAA | -0.201
CAAAGCTG | -0.016
ATCGGTCC | 0.0966
CCGTCAAG | 0.239
GGCGTTGA | 0.0245
GACTGTAC | -0.0606
AGGTAAGG | -0.313
ATCGCCAT | 0.0502
ATCCAAGA | -0.139
CCCAGGAC | -0.0909
ACTAGCGC | 0.291
CTTGACGC | 0.0924
ATAGCCCC | -0.106
AAGAGTCC | -0.0322
GGTAGTAA | -0.126
AAGACGTC | 0.0352
GGAGCTCA | -0.0863
AGCCATAA | -0.0225
AACTCATT | -0.091
GACACTGA | -0.041

Block 4
Target: Hepatocyte nuclear factor 3-beta, forkhead domain (FOXA2, Homo sapiens, UniProt Q9Y261, residues 142-269)
Technique: protein-binding microarray
Form: double-stranded DNA, one strand shown
Matrix: in vitro
Concentration: not given
Notes: k-mer, scored over probes, only values ≥0.25
Reading: higher = stronger binding
Target sequence (chain): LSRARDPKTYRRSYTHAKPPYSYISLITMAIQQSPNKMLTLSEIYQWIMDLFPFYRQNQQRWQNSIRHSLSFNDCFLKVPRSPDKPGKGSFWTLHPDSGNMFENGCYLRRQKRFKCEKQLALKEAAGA
Oligonucleotide | E-score
AATCATGA | 0.298
AACTACCA | 0.286
ATTATGAA | 0.251
ATAGTTAC | 0.299
ATGGTAAT | 0.271
AATCCATA | 0.298
AATACAAA | 0.357
AAACAATT | 0.295
ATACACCA | 0.289
AAGTAACA | 0.28
AACTTACA | 0.262
GGAATATA | 0.295
ACCTAATA | 0.283
ATTAGATA | 0.306

Block 5
Target: Phosphate system positive regulatory protein PHO4, full length, GST-tagged (PHO4, Saccharomyces cerevisiae, UniProt P07270, residues 1-312)
Technique: competition protein-binding microarray
Form: double-stranded DNA, one strand shown
Matrix: in vitro
Concentration: 2 µM
Notes: whole 60-bp probe, lowest competitor level
With: Cbf1 competitor, 0.05 µM
Reading: higher = stronger binding
All sequences stand within: … GTCTTGATTCGCTTGACGCTGCTG
Target sequence (chain): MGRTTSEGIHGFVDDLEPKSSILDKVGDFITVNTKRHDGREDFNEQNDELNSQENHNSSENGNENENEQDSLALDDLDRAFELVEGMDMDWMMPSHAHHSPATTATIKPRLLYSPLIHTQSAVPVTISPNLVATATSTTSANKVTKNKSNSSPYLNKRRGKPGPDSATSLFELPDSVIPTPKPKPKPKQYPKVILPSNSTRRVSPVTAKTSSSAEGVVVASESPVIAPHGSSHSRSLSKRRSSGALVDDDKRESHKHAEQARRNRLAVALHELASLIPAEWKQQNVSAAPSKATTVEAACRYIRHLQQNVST
Oligonucleotide | fluorescence intensity [a.u.]
GGGATGAAAGTTCTGCGTGTGTTGGTTACTTAGGTT | 6870
ACCTATAACAAGCATCACAGCATATCAATGGGCGGT | 5370
GGAAAGGCTCTTCAACACGTGGCAACATAGGTTAAT | 19100
CTTTCCCGATCTTGGCACGTGTTTTTAGCACATTTG | 16200
TGTGAATGGTGGGAGTGCATGACAACGAGGATTTTT | 7240
GTCTTGTCTCATTGCATGGTGGGTGTCCCCACTTCA | 5900
GTCTTGTCTCATTGGCCAGTGGGTGTCCCCACTTCA | 3640
AAATTACTAAGTTGCGCTGTGGGTGACGCCGTATGA | 3910
CTAACGAAGGTTTTTCACGTGTTATACAAGCCAAGT | 15000
CTTCTGTAAATTTTTCACGTGTACTGACGCGCCCCG | 11500
CCAGACACATCCCATTGCATGACGCAAGTGTGGGAG | 6450
GCAGCCAGGAGCTGGCACGGCGCCAACTGAAAAGTT | 4560
CGCTGAGTACTTCCTCACCTGATCCAATCGATTGAC | 4020
ACAAGACGCTGCCATCACGCAAACTATGTTTTGACA | 4930
CATACCCAACCTTGGGTAGTGGGTGAAGATATTTGT | 4490
ACATATATTAAGTTCCACGTGATGGAGGGAATAGTC | 16700

Block 6
Target: Sal-like protein 4, full length isoform A (SALL4, Homo sapiens, UniProt Q9UJQ4, residues 1-1053)
Chain of UniProt Q9UJQ4 (whole entry, looked up): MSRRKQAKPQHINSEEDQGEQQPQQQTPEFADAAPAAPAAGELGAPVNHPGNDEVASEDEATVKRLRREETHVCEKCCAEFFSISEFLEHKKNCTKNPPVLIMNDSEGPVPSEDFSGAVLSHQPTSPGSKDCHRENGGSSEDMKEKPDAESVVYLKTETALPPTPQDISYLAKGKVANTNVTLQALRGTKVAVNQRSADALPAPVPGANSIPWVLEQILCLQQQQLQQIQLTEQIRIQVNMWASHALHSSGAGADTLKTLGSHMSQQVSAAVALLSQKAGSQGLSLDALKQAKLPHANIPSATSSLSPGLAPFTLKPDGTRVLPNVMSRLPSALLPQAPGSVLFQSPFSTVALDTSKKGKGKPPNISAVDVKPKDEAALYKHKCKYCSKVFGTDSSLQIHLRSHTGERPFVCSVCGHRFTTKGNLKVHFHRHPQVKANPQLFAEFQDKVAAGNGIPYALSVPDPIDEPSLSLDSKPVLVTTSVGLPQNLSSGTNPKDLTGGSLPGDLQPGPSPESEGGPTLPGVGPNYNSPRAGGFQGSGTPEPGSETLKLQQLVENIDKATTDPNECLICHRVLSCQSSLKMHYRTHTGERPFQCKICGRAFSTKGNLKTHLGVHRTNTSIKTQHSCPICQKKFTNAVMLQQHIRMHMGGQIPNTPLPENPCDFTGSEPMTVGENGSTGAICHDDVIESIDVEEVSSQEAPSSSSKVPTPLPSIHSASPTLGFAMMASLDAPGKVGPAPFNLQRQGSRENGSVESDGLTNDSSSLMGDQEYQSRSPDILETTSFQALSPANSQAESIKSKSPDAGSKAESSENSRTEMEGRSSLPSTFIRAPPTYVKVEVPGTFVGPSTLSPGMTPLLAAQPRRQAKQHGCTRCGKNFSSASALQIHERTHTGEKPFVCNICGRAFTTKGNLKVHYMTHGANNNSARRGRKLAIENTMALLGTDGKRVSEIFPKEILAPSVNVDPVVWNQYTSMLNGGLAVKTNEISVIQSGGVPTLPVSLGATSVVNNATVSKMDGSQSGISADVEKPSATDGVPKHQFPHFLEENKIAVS
Technique: universal PBM
Form: double-stranded DNA, one strand shown
Matrix: in vitro
Concentration: 600 nM
Notes: 8-mer, flanks averaged, mean of replicates
Reading: higher = stronger binding
Oligonucleotide | E-score
AAACACTG | 0.0822
CGTTTTGC | 0.0234
CCGTTTGC | -0.263
CCTTGCCC | -0.18
GTTTGGGA | -0.0178
GAAAGCAA | 0.105
AAGTCTTC | -0.0314
GATCGAAC | -0.097
ACGCTACC | -0.165
ACGTAAGA | 0.203
ACTATGTA | 0.19
TACGAACA | 0.179
CGGAAGGC | -0.244
ATCTAAGC | -0.0253
ACATGGCA | 0.00295
AACTTACT | 0.00955
ACTCGATA | 0.0835
CTAGACCA | 0.0181
GAGATTTA | 0.188
TAAGGAAA | 0.106
AACTACAC | 0.131
CGGGTCAC | -0.376
AGTGGTAA | 0.102
CATGTCTA | 0.182

Block 7
Target: NFE2L3, bZIP domain (human)
Technique: DHFR protein complementation
Matrix: yeast
Notes: single substitutions, most at no-binding floor
Relative to: wild-type JUN-FOS pair
Reading: higher = stronger binding
Starting sequence: JUN, bZIP domain (human); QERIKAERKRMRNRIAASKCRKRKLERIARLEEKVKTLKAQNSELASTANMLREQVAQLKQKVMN; partner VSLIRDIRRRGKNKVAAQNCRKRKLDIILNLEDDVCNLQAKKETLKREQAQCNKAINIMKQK
Change | binding fitness [natural log]
T37N | -1.41
S43M | -1.23
Q55P | -1.59
L52P | -1.5
R53W | -1.52
A46V | -1.58
E32W | -1.53
E44A | -1.44
A57M | -1.46
A29L | -1.43
N42I | -1.28
R53L | -1.42
N42C | -1.11
A49D | -1.55
Q41I | -1.49
E54L | -1.45
L52Y | -1.51
S43H | -1.52
N42D | -1.49

Other studies, line by line
Substance | target | assay | system | setting | how to read | quantity | result
PhoQ, residues 284 288 289 292 302 303 AEGLLW | PhoP, residues 12 14 15 18 19 NHTVL (Escherichia coli, UniProt P23836) | Sort-seq, item: YFP reporter | E. coli | PhoQ-PhoP variant library, with: 10 µM Mg2+ | relative to: high Mg2+ state, higher = stronger signaling | fold induction | 2.89
